Published values gathered from unrelated publications.
Each line is one published result; not all experiments were run side by side. “And” joins repeats or separate records; there may be more than shown. Numbers after ± are the reported error.

SMILES	target or system	test	test system	setting	scale	quantity	value
CCn1cc(-c2cc(Cn3ccnc3)cc3c2CCN([C@H](c2cc(OC)ccn2)C2CC2)C3=O)c(C(F)(F)F)n1	HSC-4	cell growth, inhibitor		120 h		EC50	> 30000 nM
CCCCc1oc2ccc(NS(C)(=O)=O)cc2c1C(=O)c1ccc(OCCCN(CCCC)CCCC)cc1	human embryonic stem cell aggregates	mRNA level, microarray, refers to: NR2F2		0.5 µM, 120 h	reference: untreated, down-regulated	fold change	3.5 fold
Cc1cc(Nc2ncc(Cl)c(Nc3ccccc3S(=O)(=O)C(C)C)n2)c(OC(C)C)cc1C1CCNCC1	CLB-GE	phosphoproteomics LC-MS/MS, refers to: IRS2 phosphorylation		200 nM, 60 min	reference: untreated	log2 fold change	-11.8
COc1c(O)c(C)cc2c1C(=O)c1c(O)cccc1C2=O	HepaRG co-cultured with HK-2	MTT		16.67 µM, 48 h	reference: untreated control	cell viability	55.4 ± 9.07%
Cc1cccc(-c2[nH]c(CNc3ccccc3F)nc2-c2ccc3ncnn3c2)n1	pomalidomide-resistant MM1.S cells	XTT		3.5 µM	higher = more viable cells	XTT absorbance	0.6 E-1 and 0.8 E-1 and 1.1 E-1
COc1cc2ncnc(Nc3ccc(Oc4ccccc4)cc3C)c2cc1OC.O=C(O)C(F)(F)F	LoVo (KRAS G13D)	cell viability, resazurin		1 µM, 72 h, with: trametinib 0 nM	reference: DMSO	average fractional effect	1.42%
Oc1ccccc1-c1n[nH]cc1-c1ccnc2ccccc12	KNS1 (Candida albicans)	kinase binding, MIB/MS competition	Candida albicans lysate	1 µM	reference: DMSO	log2 fold change	0.29
CCn1cc(-c2cc(Cn3ccoc3=N)cc3c2CCN([C@@H](C)c2cc(OC)ccn2)C3=O)c(C(F)(F)F)n1	SCC-15	cell growth, inhibitor		120 h		EC50	330 nM
COc1cc([C@@H]2c3cc4c(cc3[C@@H](O[C@@H]3O[C@@H]5CO[C@@H](C)O[C@H]5[C@H](O)[C@H]3O)[C@H]3COC(=O)[C@H]23)OCO4)cc(OC)c1O	OCI-Ly1			0.1 µM, 120 h		viability	159%
COC(=O)c1cn(C)c2ccc(-c3cccnc3)cc12	COS-7			10 µM, 24 h, 0.1% DMSO, unit not given	reference: vehicle control	necrotic cells	0.54 ± 0.21
CN(C)c1ccc(C(=O)NCCCCCC(=O)NO)cc1	OCI-Ly1			1 µM, 120 h		viability	86.9%
O=C(/C=C/C=C/C=C/C1CCCCC1)NC1=C[C@@](O)(/C=C/C=C/C=C/C(=O)NC2=C(O)CCC2=O)[C@@H]2O[C@@H]2C1=O	CAL-33	cell growth, CellTiter-Glo		78 h		GI50	10.5 µM
CC(C)C[C@H](NC(=O)C[C@H](O)[C@H](CC(C)C)NC(=O)[C@H](Cc1c[nH]cn1)NC(=O)CNC(=O)[C@@H](NC(=O)[C@H](C)NC(=O)[C@H](Cc1c[nH]c2ccccc12)NC(=O)[C@H](CCC(N)=O)NC(=O)[C@@H](Cc1ccccc1)NC(=O)COCCOCCNC(=O)CCC(C(=O)O)N1CCN(CC(=O)O)CCN(CC(=O)O)CCN(CC(=O)O)CC1)C(C)C)C(N)=O (stereo partly drawn) [lutetium-177 labelled]			BALB/c nu/nu mice, large intestine	750 pmol, 1 h, with: PA 300 µg		tissue uptake	0.8 ± 0.4 %ID/g
O=C(O)CCNc1cc(N2CCc3ccccc3CC2)nc(-c2cccnc2)n1	OCI-Ly1			1 µM, 120 h		viability	111%
Cn1cc(-c2ccc(-c3cncc(Cl)c3N3CCC4(CCNC4=O)CC3)cc2)cn1	COLO 205	gene expression, microarray, refers to: TFRC mRNA		concentration not given, 6 h	reference: untreated cells	log2 fold change	-1.26
Cn1cc(/C=C/C(=O)c2cccc(F)c2)cc1/C=C/C(=O)NO	OCI-Ly1			0.1 µM, 120 h		viability	197%
COc1cnc2cccc(N3CCc4c(cc(Cn5ccnc5C)cc4-c4cn(C)nc4C(F)(F)F)C3=O)c2c1	SW1417	cell growth, inhibitor		120 h		EC50	1860 nM

SMILES	target or system	test	test system	setting	scale	quantity	value
COc1cc(/C=C/C(=O)N2CCC=CC2=O)cc(OC)c1OC	MDA-MB-468	quantitative RT-PCR, refers to: PUMA		30 µM, 8 h	reference: untreated	mRNA level	502 ± 54.3%
O=C(Nc1cnc2ccccc2c1)c1cc2[nH]ccc2cc1Cl	COS-7	WST-8		1 µM, 24 h, 0.1% DMSO, unit not given	reference: vehicle control	metabolic activity	1 ± 0.04
NC(=O)c1cnc2[nH]ccc2c1N[C@@H]1[C@@H]2CC3C[C@H]1C[C@@](O)(C3)C2		CD4+ CD28+ naive T cells, flow cytometry	Japanese humans, peripheral blood	200 mg single dose	reference: baseline	percent change	2.35%
CCn1c(=O)/c(=C2\Sc3ccccc3N2C)s/c1=C\c1cccc[n+]1CC.[Cl-]	iPSC-derived cardiomyocytes	concentration-response fit		concentration not given	reference: vehicle	fitted top MyBP-C level	76%
C[C@H]1[C@H](C)CC[C@]2(C)CC[C@]3(C)C(=CC(=O)[C@@H]4[C@@]5(C)CC[C@@H](O)[C@](C)(C(=O)NCc6cn(-c7cccc(Br)c7)nn6)[C@@H]5CC[C@]43C)[C@H]12	human PBMCs	flow cytometry		5 µM	reference: CD8- T cells	TIGIT positive cells	11.6%
O=C(/C=C/C#Cc1cccc(NS(=O)(=O)c2ccccc2)c1)NO	OCI-Ly1			0.5 µM, 120 h		viability	63%
[Cl-].[Cl-].[Ru+2].c1cnc2c(c1)ccc1cccnc12.c1cnc2c(c1)ccc1cccnc12.c1csc(-c2ccc(-c3ccc(-c4nc5c6cccnc6c6ncccc6c5[nH]4)s3)s2)c1	SK-MEL-28			normoxia, with: green light 523 nm		phototherapeutic index	370
O=C(O)c1cc(O)c2c(c1)C(=O)c1cccc(O[C@@H]3O[C@H](CO)[C@@H](O)[C@H](O)[C@H]3O)c1C2=O	HepaRG co-cultured with HK-2	MTT		66.67 µM, 48 h	reference: untreated control	cell viability	63.4 ± 15.6%
CC(C)[C@H](C(=O)Nc1ccc(C(=O)NO)cc1)c1ccccc1	OCI-Ly1			1 µM, 120 h		viability	8.6%
C=CCNC1=C2C[C@@H](C)C[C@H](OC)[C@H](O)[C@@H](C)/C=C(\C)[C@H](OC(N)=O)[C@@H](OC)/C=C\C=C(/C)C(=O)NC(=CC1=O)C2=O	iPSC-derived cardiomyocytes	concentration-response fit		concentration not given	reference: vehicle	fitted bottom MyBP-C level	16.5%
CCCCCCCCCCCCCCCc1cccc(O)c1C(=O)O	OCI-Ly1			1 µM, 120 h		viability	157%
CC(C)NCC(O)c1ccc(O)c(O)c1 (stereo not drawn)	mouse ventricular cardiomyocytes			dose not given, 0.019 s		sarcomere length	1.8 µm
OCc1nc2ccc(NCc3ccc(C(F)(F)F)cc3)cc2[nH]1	sample A patient iPSC-derived NPCs	MTS		10 µM, 24 h	reference: vehicle	viability	132 ± 4.28%
CCCN1CCN(c2ccc3[nH]c(-c4ccc5[nH]c(-c6ccc(C(F)(F)F)cc6)nc5c4)nc3c2)CC1	786-0	cell growth, NCI-60 SRB		10 µM, 48 h		growth percent	-90.2%
COc1cc2c(NC3CCN(CC4CCCCC4)CC3)nc(N3CCCN(C(C)C)CC3)nc2cc1OCCCN1CCCCC1	OCI-Ly1			0.5 µM, 120 h		viability	91.5%
C#C[C@@]1(O)[C@@H](CO)O[C@@H](n2ccc3c(N)ncnc32)[C@@H]1O	786-0	cell growth, SRB				TGI	6.15 µM

Some of these lines once more:
SMILES	target or system	test	test system	setting	scale	quantity	value
CC(C)[C@H](C(=O)Nc1ccc(C(=O)NO)cc1)c1ccccc1	OCI-Ly1			1 µM, 120 h		viability	8.6%
COc1cnc2cccc(N3CCc4c(cc(Cn5ccnc5C)cc4-c4cn(C)nc4C(F)(F)F)C3=O)c2c1	SW1417	cell growth, inhibitor		120 h		EC50	1860 nM
OCc1nc2ccc(NCc3ccc(C(F)(F)F)cc3)cc2[nH]1	sample A patient iPSC-derived NPCs	MTS		10 µM, 24 h	reference: vehicle	viability	132 ± 4.28%
O=C(/C=C/C=C/C=C/C1CCCCC1)NC1=C[C@@](O)(/C=C/C=C/C=C/C(=O)NC2=C(O)CCC2=O)[C@@H]2O[C@@H]2C1=O	CAL-33	cell growth, CellTiter-Glo		78 h		GI50	10.5 µM
CCCCc1oc2ccc(NS(C)(=O)=O)cc2c1C(=O)c1ccc(OCCCN(CCCC)CCCC)cc1	human embryonic stem cell aggregates	mRNA level, microarray, refers to: NR2F2		0.5 µM, 120 h	reference: untreated, down-regulated	fold change	3.5 fold
